Measurements pooled from the literature.
Every numbered part comes from another study and shows a few of its results, in no order.

Block 1 — technique: RNAcompete; form: RNA; matrix: in vitro; concentration: 20 nM; notes: 7-mer, probes averaged, single round; reference: mean of 7-mers; reading: higher = stronger binding
Target: PABPC1L2, full length, GST fusion (mouse, UniProt A0ABA7IW68)
Residues (chain): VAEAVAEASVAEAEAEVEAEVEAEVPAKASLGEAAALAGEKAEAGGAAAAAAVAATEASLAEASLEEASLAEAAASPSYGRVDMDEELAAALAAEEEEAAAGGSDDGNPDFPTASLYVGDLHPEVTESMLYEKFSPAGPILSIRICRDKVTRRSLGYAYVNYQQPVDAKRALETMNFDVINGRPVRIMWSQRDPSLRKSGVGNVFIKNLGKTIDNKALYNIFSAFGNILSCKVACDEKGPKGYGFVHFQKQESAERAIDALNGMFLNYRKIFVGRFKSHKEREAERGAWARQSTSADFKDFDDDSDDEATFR
| Oligonucleotide | 7-mer Z-score |
| --- | --- |
| CAGUCCU | -0.237 |
| AGAGAGG | 0.285 |
| GAGUUUC | -0.481 |
| ACUCGAG | -0.197 |
| GCGCCAG | -0.231 |
| UGGGGAC | 0.305 |
| UGAAUGU | -0.206 |
| UGGAGUG | -0.157 |

Block 2 — cell line: HEK-293T/ACE2; concentration: concentration not given; time: 16 (unit not given); reference: vehicle
| Structure (SMILES) | viability [%] |
| --- | --- |
| CN(N=O)C(=O)N[C@@H](C=O)[C@@H](O)[C@H](O)[C@H](O)CO | 100 |
| CN1CCC(=C2c3ccccc3CCc3cccnc32)CC1 | 101 |
| COc1ccc(C[C@@H]2c3cc(OC)c(OC)cc3CC[N@+]2(C)CCC(=O)OCCCCCOC(=O)CC[N@@+]2(C)CCc3cc(OC)c(OC)cc3[C@H]2Cc2ccc(OC)c(OC)c2)cc1OC | 104 |
| OC(CNCC(O)C1CCc2cc(F)ccc2O1)C1CCc2cc(F)ccc2O1 (centres unmarked) | 104 |

Block 3 — technique: RNA Bind-n-Seq; form: RNA; matrix: in vitro; concentration: 20 nM; notes: 6-mer, flanks averaged, single round; together with: 150 mM LiCl; reference: input library; reading: higher = stronger binding
Target: TAR DNA-binding protein 43, full length, His tag (TARDBP, Homo sapiens, UniProt Q13148, residues 1-414)
| Oligonucleotide | 6-mer enrichment (R) |
| --- | --- |
| GUAUAC | 0.897 |
| GGCCCU | 1.08 |
| UUUCCC | 1.11 |
| UAUGAA | 1.08 |
| GCUCGC | 0.854 |
| UUCCGG | 0.918 |
| CUCAGU | 0.898 |
| GUGAUA | 1.04 |

Block 4 — observed: enzyme activity; mode: inhibitor; concentration: 20 µM; notes: hit confirmation, no DTT
Target: Replicase polyprotein 1ab, main protease (rep, Severe acute respiratory syndrome coronavirus 2, UniProt P0DTD1)
| SMILES | inhibition [%] |
| --- | --- |
| COc1cc(C[C@@H]2NCCc3cc(O)c(O)cc32)cc(OC)c1OC | 55.4 |
| CNC(=O)ON(C(C)=O)C(=O)NC | 94.7 |
| CCN(CC)c1ccc(C(=C2C=CC(=[N+](CC)CC)C=C2)c2ccccc2)cc1 | 86.9 |

Block 5 — technique: protein-binding microarray; form: double-stranded DNA, one strand shown; matrix: in vitro; concentration: not given; reading: higher = stronger binding
Target: Max dimerization protein 1, bHLH-zipper, MAX partner unstated (MXD1, Homo sapiens, UniProt Q05195, residues 56-136)
Notes: k-mer, scored over probes, only values ≥0.25
Residues (chain): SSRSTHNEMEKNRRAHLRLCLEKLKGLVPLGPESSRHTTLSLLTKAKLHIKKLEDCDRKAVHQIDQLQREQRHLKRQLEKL
| Oligonucleotide | E-score |
| --- | --- |
| CATGCACC | 0.36 |
| GGGTGACA | 0.27 |
| ATGTGGCG | 0.259 |
| CACGCGCA | 0.401 |
| CGTGTACC | 0.343 |
| ATGAGGGC | 0.339 |
| CACGTGAC | 0.477 |
| ATAGCATG | 0.339 |

Block 6 — observed: enzyme activity; mode: inhibitor; concentration: 20 µM
Target: Replicase polyprotein 1ab, polymerase (rep, Severe acute respiratory syndrome coronavirus 2, UniProt P0DTD1)
| SMILES | inhibition [%] |
| --- | --- |
| OB1OCc2cc(Cl)ccc21 | 1.45 |
| O=S(=O)(N=Cc1c(O)ccc2ccccc12)c1cccs1 | 0.44 |
| COc1cc(N2CCC(N3CCN(C)CC3)CC2)ccc1Nc1ncnc(Nc2ccccc2S(=O)(=O)C(C)C)n1 | -4.52 |
| CN(CC[C@@H](Oc1ccc(-c2ccccc2)cc1)c1ccc(F)cc1)CC(=O)O | 5.59 |
| OCCN1CCN(CC/C=C2/c3ccccc3Sc3ccc(Cl)cc32)CC1 | -1.75 |
| CC(C)c1ccc(C(=O)c2cccs2)c(SCCCCCCCCN(C)C)n1 | -2.74 |
| COC(=O)c1c(C)[nH]c(C)c1C(=O)c1ccccc1Cc1ccccc1 | -4.66 |
| CCCCc1nc2cc(/C=C/C(=O)NO)ccc2n1CCN(CC)CC | 1.48 |
| O=C(NO)c1ccc2[nH]c(=O)c(CCCc3ccccc3)nc2c1 | 3.87 |
| Cc1ccc(C(C)C)c(OCC2=NCCN2)c1 | -0.6 |
| O=C(O)[C@H](O)[C@@H](O)[C@H](O)[C@H](O)CO | -1.19 |
| NC(=O)[C@H]1CCS[C@@H]2C[C@]3(CCCN3C(=O)Cc3ccc(NC(=O)COc4ccc(Cl)cc4Cl)cc3)C(=O)N12 | 0.3 |
| COc1cc2c(NC3CCN(C)CC3)nc(N3CCCN(C)CC3)nc2cc1OCCOCCN(C)C | 3.76 |
| C[C@]12CC[C@@H](O)C[C@H]1CC[C@@H]1[C@@H]2CC[C@]2(C)C(=O)CC[C@@H]12 | -2.42 |
| O=c1cc(N2CCOCC2)oc2c(-c3cccc4c3sc3ccccc34)cccc12 | -0.05 |
| CN(C(=O)CN(CCO)CC(=O)N(C)C(C)(C)Cc1ccccc1)C(C)(C)Cc1ccccc1 | 0.07 |
| CCCCCCCC/C=C\CCCCCCCC(=O)N[C@@H](CO)Cc1ccc(O)cc1 | -0.14 |
| NC[C@H](O)c1ccc(O)c(O)c1 | 34 |
| COC(=O)c1cccnc1 | -1.44 |
| CCN(CC)CCNC(=O)c1ccc(NC(C)=O)cc1 | 4.05 |
| Cc1cccc(C)c1NC(=O)C[N+](C)(C)C | 4.42 |
| CCc1ccc(C(=O)C(C)CN2CCCCC2)cc1 (centres unmarked) | -1.66 |
| CC1(C)S[C@@H]2[C@H](NC(=O)[C@H](NC(=O)N3CCN(S(C)(=O)=O)C3=O)c3ccccc3)C(=O)N2[C@H]1C(=O)O | -5.36 |
| CCCCCCCCCCCCc1ccc(S(=O)(=O)Nc2nncs2)cc1 | 7.35 |
| O=C(NO)C1(CS(=O)(=O)c2ccc(Oc3ccc(Cl)cc3)cc2)CCOCC1 | -4.98 |

A few entries again (block 6):
| SMILES | inhibition [%] |
| --- | --- |
| CN(C(=O)CN(CCO)CC(=O)N(C)C(C)(C)Cc1ccccc1)C(C)(C)Cc1ccccc1 | 0.07 |
| CCCCCCCCCCCCc1ccc(S(=O)(=O)Nc2nncs2)cc1 | 7.35 |
| CCCCCCCC/C=C\CCCCCCCC(=O)N[C@@H](CO)Cc1ccc(O)cc1 | -0.14 |
